Published values collected from several papers.
Lines come from different studies, so protocols differ.
Target: Casein kinase I isoform delta (CSNK1D, Homo sapiens, UniProt P48730)

Cc1ccc(-c2c(/C=C(\C#N)C(=O)NC(C)C)n(CCCO)c3ncnc(N)c23)cc1 — remaining binding (cell-free assay, competition with immobilised ligand; 1 µM): 72%
Cc1cnc2nc1Nc1cccc(c1)COC/C=C/COCc1cc(ccc1OCCN1CCOCC1)N2 — remaining binding (binding; 0.1 µM): 100%
CNC1C[S+]2CC[S+]3CC[S+](C1)[Ru-4]321([N]=C=S)[n]2c3ccc(OC)cc3c3c4c(c5cc(F)c[n+]1c5c32)C(=O)NC4=O (stereo not shown) — remaining binding (KinomeScan; 0.1 µM; relative to: untreated): 72%
COc1c(OCCCN2CCOCC2)ccc2c1N=C(NC(=O)c1cnc(N)nc1)N1CCN=C21 — remaining activity (kinase activity, inhibitor; 1 µM; relative to: untreated control): 109%
Nc1ncc(-c2cc(-c3cnn(CC(F)(F)F)c3)ncc2F)nc1C(=O)NC1CNCC(F)C1 (stereo not shown) — remaining activity (enzyme activity; 1 µM; relative to: DMSO control): 83.7%
CNC(=O)C1CCN(c2cc(C)c(F)cc2NC(=O)c2ccc(-c3cc(O)ccc3C)c(C)c2)CC1 — remaining binding (binding, competition with immobilised ligand; 1 µM): 32%
CNC(=O)C[C@H](Cc1ccc(C#N)cc1)NC(=O)c1cc(-c2ccc(CN[C@H](C)c3ccc(C)cc3)o2)ccc1Cl — activity vs control (enzyme activity, inhibitor; 1 µM): 92%
COc1ccc(NC(=O)Nc2ccc3c(c2)C(=O)N(C(C)CO)CC(C)C(CN(C)Cc2ccc4c(c2)OCO4)O3)cc1 (stereo not shown) — remaining binding (binding, competition with immobilised ligand; 10 µM): 100%
c1ccc2c(Nc3cc(C4CCC4)[nH]n3)nc(Nc3ccc4nc[nH]c4c3)nc2c1 — remaining activity (enzyme activity, inhibitor; 0.25 µM): 3%
Cc1cccc(-c2ccc3nc(NC(=O)C4CCOCC4)nn3c2)c1 — remaining activity (enzyme activity, Dundee kinase panel; 10 µM): 86%
CN1CCN(Cc2ccc(NC(=O)c3cccc(C#Cc4cnc(N)c5ncccc45)c3)cc2C(F)(F)F)CC1 — remaining binding (cell-free assay, competition with immobilised ligand; 50 nM): 88%
CCN1CCN(Cc2ccc(C(=O)Nc3ccc(C)c(NCc4cnc5[nH]ccc5c4OC)c3)cc2C(F)(F)F)CC1 — remaining binding (binding, competition with immobilised ligand; 1 µM): 89%
Cc1ccc(C)c(-c2ccc3nc(NC(=O)C4CCCCC4)nn3c2)c1 — remaining activity (enzyme activity, Dundee kinase panel; 10 µM): 92%
COc1c(Cl)cccc1Nc1c(-c2ccncc2C#C[C@@]2(C)CCCN2C(=O)/C=C/CN(C)C)[nH]c2c1C(=O)NCC2 — remaining binding (cell-free assay, competition with immobilised ligand; 3 µM): 80%
CC(C)=CC1OC(C)(C)C2C=C3C(=O)C(Cl)=CC(O)C3C3C(O)C4OC4C(=O)C132 (stereo not shown) — remaining binding (cell-free assay, competition with immobilised ligand; 10 µM): 91%
COc1cc(Nc2nc(C)cc(-c3cnn4nc(OC)ccc34)n2)cc(C(F)(F)F)c1 — remaining activity (inhibitor; 1 µM; relative to: control): 90%
CN1CCN(Cc2ccc(-c3ccc(CO[C@H]4CCC[C@@H]4NC(=O)c4cc(-c5cnn(C)c5)cnc4N)cc3)cc2)CC1 — inhibition (enzyme activity, inhibitor; 0.1 µM): 1%
NC(=O)[C@@H](O)C[C@H]1CCc2sc3ncnc(O[C@H]4CC[C@H](N5CCOCC5)CC4)c3c21 — inhibition (enzyme activity, inhibitor; 10 µM): 45%
C=CC(=O)N1CCc2ccc(-n3c(=O)ccc4cnc5ccc(-c6cnn(C)c6)cc5c43)cc21 — remaining binding (KINOMEscan; 1 µM; relative to: DMSO control): 90%

A few entries again:
Cc1ccc(-c2c(/C=C(\C#N)C(=O)NC(C)C)n(CCCO)c3ncnc(N)c23)cc1 — remaining binding (cell-free assay, competition with immobilised ligand; 1 µM): 72%
Cc1cnc2nc1Nc1cccc(c1)COC/C=C/COCc1cc(ccc1OCCN1CCOCC1)N2 — remaining binding (binding; 0.1 µM): 100%
CNC1C[S+]2CC[S+]3CC[S+](C1)[Ru-4]321([N]=C=S)[n]2c3ccc(OC)cc3c3c4c(c5cc(F)c[n+]1c5c32)C(=O)NC4=O (stereo not shown) — remaining binding (KinomeScan; 0.1 µM; relative to: untreated): 72%
